# Measurements from different studies.
# Each numbered part is a random draw from the data of one study; scales do not carry over between parts.
# Chain of UniProt Q9Y6E0 (whole entry, looked up): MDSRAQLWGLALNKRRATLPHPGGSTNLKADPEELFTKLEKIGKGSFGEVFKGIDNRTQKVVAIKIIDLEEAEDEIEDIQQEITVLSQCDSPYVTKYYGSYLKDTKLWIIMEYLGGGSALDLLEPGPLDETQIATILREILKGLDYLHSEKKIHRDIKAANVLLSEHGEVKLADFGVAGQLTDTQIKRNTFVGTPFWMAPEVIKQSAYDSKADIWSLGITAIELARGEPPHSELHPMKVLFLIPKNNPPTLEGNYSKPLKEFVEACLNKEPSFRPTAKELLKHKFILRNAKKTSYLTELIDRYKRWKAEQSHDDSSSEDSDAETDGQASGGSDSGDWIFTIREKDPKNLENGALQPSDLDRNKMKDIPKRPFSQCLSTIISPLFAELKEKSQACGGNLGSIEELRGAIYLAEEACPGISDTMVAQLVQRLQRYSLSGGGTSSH
# Chain of UniProt Q9Y5S2 (whole entry, looked up): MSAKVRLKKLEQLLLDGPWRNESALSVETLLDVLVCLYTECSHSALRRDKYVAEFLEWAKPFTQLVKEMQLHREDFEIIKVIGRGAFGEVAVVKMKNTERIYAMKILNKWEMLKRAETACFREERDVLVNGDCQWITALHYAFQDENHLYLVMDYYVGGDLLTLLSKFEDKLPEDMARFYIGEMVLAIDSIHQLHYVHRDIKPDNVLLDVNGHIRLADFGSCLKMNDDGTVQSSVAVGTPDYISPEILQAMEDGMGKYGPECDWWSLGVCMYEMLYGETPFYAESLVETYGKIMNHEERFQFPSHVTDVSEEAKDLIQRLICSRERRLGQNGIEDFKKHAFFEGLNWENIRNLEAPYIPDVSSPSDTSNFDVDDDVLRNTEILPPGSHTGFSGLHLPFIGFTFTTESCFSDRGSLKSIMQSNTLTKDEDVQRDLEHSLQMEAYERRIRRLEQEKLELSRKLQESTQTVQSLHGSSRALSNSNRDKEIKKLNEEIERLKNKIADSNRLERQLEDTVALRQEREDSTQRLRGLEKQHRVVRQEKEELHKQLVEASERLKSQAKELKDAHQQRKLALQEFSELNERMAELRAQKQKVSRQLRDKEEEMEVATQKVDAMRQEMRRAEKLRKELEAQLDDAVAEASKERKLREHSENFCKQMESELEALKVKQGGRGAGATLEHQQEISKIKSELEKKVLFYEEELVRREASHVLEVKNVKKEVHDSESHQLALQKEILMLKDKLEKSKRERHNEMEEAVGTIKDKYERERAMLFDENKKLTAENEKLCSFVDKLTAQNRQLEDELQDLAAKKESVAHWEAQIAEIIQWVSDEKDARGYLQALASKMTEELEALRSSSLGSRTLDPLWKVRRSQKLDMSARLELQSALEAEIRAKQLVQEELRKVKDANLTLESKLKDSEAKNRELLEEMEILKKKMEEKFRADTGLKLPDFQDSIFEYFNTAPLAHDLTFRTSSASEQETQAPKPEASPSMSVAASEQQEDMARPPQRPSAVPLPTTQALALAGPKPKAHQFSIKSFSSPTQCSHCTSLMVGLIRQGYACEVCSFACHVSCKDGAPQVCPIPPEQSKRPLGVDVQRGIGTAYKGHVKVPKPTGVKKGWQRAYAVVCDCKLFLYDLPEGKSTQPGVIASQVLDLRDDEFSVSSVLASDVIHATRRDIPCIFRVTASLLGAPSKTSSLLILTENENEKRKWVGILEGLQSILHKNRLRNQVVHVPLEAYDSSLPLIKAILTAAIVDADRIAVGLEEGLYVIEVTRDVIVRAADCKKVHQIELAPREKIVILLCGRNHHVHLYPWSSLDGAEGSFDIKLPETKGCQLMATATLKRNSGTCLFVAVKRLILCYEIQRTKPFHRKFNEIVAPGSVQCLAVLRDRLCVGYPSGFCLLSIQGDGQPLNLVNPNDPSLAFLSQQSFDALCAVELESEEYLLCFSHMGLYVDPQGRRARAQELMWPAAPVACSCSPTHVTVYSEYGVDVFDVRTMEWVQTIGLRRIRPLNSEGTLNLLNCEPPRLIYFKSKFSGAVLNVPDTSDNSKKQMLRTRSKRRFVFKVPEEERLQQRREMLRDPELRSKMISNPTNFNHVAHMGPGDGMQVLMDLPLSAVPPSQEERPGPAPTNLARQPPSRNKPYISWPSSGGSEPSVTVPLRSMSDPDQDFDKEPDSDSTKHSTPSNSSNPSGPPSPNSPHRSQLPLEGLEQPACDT
# Chain of UniProt Q16816 (whole entry, looked up): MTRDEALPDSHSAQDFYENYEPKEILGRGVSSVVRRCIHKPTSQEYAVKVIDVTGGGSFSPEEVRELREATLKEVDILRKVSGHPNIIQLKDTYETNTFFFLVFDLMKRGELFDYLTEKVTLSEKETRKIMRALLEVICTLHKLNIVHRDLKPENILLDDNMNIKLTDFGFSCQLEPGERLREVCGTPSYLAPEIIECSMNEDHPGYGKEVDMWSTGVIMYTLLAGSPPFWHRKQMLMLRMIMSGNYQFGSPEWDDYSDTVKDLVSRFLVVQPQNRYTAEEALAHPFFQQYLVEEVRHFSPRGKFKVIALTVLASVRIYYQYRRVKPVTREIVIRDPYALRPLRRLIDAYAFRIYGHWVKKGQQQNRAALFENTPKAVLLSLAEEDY
# Chain of UniProt Q9H2X6 (whole entry, looked up): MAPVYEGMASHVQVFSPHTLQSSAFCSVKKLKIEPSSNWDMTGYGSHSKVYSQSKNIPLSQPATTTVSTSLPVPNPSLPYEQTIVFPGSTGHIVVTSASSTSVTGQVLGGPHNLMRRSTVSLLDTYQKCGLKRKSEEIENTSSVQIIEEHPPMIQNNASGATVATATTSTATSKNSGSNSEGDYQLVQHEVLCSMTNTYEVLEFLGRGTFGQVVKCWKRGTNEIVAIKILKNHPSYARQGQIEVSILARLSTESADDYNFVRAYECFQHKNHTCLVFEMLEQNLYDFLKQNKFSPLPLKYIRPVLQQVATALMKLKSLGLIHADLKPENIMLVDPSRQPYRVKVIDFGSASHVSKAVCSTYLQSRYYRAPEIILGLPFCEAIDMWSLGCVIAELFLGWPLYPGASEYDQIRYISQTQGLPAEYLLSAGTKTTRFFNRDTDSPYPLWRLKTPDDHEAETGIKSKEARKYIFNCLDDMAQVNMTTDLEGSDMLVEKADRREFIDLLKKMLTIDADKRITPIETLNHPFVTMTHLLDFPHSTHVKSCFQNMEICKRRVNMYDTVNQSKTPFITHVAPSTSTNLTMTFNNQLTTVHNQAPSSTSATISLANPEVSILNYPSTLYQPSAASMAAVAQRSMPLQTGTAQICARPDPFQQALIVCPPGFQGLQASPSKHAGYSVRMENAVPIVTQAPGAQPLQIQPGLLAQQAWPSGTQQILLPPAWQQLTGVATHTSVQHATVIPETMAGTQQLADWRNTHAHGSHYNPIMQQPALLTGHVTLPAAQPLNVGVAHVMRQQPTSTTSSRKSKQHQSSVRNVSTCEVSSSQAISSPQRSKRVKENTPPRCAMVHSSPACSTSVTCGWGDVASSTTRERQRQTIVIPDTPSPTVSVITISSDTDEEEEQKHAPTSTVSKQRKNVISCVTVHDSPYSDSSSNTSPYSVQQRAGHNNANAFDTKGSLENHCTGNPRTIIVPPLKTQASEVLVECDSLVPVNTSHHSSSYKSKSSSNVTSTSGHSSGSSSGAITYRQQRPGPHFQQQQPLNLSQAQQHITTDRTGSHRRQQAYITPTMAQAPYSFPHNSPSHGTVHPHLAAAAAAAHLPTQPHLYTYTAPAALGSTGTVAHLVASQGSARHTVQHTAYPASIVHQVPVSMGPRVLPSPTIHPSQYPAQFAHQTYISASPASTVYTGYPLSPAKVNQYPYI
# Chain of UniProt P51451 (whole entry, looked up): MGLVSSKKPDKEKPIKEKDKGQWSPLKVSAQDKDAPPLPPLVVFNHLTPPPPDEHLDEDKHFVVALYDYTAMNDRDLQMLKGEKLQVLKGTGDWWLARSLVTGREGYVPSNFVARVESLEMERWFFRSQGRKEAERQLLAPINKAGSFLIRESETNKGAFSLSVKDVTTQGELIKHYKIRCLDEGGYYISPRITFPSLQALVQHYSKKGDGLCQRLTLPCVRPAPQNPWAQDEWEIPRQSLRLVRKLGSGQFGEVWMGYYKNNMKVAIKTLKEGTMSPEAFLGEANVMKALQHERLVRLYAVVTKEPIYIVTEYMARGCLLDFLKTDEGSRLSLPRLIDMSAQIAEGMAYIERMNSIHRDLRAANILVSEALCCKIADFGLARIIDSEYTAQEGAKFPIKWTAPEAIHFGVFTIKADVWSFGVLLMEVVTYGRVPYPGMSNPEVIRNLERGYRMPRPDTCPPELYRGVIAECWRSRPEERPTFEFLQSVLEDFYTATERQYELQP
# Chain of UniProt O00141 (whole entry, looked up): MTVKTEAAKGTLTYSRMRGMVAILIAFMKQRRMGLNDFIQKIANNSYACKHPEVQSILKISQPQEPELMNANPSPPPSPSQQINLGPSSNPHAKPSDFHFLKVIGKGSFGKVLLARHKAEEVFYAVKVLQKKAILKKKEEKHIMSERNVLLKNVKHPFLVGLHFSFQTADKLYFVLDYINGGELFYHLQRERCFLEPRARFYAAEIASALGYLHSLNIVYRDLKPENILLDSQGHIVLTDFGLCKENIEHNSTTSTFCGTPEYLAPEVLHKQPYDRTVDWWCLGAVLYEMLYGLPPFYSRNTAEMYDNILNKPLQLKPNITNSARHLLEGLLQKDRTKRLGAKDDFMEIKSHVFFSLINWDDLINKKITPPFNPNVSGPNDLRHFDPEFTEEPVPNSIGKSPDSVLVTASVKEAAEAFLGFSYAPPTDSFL
# Chain of UniProt Q00534 (whole entry, looked up): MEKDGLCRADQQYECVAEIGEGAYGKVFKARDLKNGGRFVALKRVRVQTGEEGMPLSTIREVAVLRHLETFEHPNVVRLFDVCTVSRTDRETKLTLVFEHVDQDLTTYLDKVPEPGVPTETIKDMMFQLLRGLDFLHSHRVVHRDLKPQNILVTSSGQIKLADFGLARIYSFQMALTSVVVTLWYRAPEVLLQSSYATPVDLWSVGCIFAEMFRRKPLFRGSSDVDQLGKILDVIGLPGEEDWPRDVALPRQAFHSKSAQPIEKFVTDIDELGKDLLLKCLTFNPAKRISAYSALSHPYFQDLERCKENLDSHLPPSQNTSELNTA

# Set 1
# Organism: Sarcocystis neurona
# Observed: parasite growth
# Concentration: 10 µM
Compound,inhibition [%]
Cc1nc2ccc(CN(C)c3ccc(C(=O)N[C@@H](CCC(=O)O)C(=O)O)s3)cc2c(=O)[nH]1,-25.7
COc1ccc(/C=C/C(=O)Nc2ccccc2C(=O)O)cc1OC,49.1
Cl.NC[C@H](O)c1ccc(O)c(O)c1,-30.4
CN(C)C(=O)C(CCN1CCC(O)(c2ccc(Cl)cc2)CC1)(c1ccccc1)c1ccccc1,26.6
Cc1cnc(NC(=O)C2=C(O)c3ccccc3S(=O)(=O)N2C)s1,-34
CC1Cc2ccccc2N1NC(=O)c1ccc(Cl)c(S(N)(=O)=O)c1 (stereo not drawn),-35.9

# Set 2
# Structure (SMILES): CC(C)n1cnc(-c2ccc(F)cc2)c1-c1ncc(C(=O)Nc2ccc(N3CCN(C)CC3)cc2)[nH]1
method,measured,species,route,dose,setting,patients with adverse event [%]
Phase 2a trial,hypertriglyceridaemia,"human, idiopathic pulmonary fibrosis",,all compound arms total,grade 2,0
Phase 2a trial,blood lactate dehydrogenase increased,"human, idiopathic pulmonary fibrosis",,all compound arms total,grade 5,0
Phase 2a trial,hyperlipidaemia,"human, idiopathic pulmonary fibrosis",,30 mg once daily,grade 2,0
,"periorbital oedema, grade 4",idiopathic pulmonary fibrosis patients,oral,30 mg once daily,,0
Phase 2a trial,hypocalcaemia,"human, idiopathic pulmonary fibrosis",,all compound arms total,grade 5,0
Phase 2a trial,hyperuricaemia,"human, idiopathic pulmonary fibrosis",,all compound arms total,grade 2,0
Phase 2a trial,eosinophilia myalgia syndrome,"human, idiopathic pulmonary fibrosis",,60 mg once daily,grade 3,0
Phase 2a trial,hypokalaemia,"human, idiopathic pulmonary fibrosis",,30 mg once daily,grade 5,0

# Set 3
# Compound: COc1ccc2c(c1)c(C1=C(c3c[nH]c4ccccc34)C(=O)NC1=O)cn2CCCN(C)C
# Observed: enzyme activity
# Action: inhibitor
# Concentration: 0.5 µM
# Baseline: control
target,remaining activity [%]
"Tyrosine-protein kinase Blk (BLK, Homo sapiens, UniProt P51451)",78.8
"Homeodomain-interacting protein kinase 4 (HIPK4, Homo sapiens, UniProt Q8NE63)",101
"Tyrosine-protein kinase receptor UFO (AXL, Homo sapiens, UniProt P30530)",98.7
"Phosphorylase b kinase gamma catalytic chain, skeletal muscle/heart isoform (PHKG1, Homo sapiens, UniProt Q16816)",66.4
"Testis-specific serine/threonine-protein kinase 2 (TSSK2, Homo sapiens, UniProt Q96PF2)",85.5
"Homeodomain-interacting protein kinase 2 (HIPK2, Homo sapiens, UniProt Q9H2X6)",96.3
"Cyclin-dependent kinase 1, with cyclin B (CDK1, Homo sapiens, UniProt P06493)",94.4
"Ribosomal protein S6 kinase alpha-5 (RPS6KA5, Homo sapiens, UniProt O75582)",61.3
"Ephrin type-B receptor 4 (EPHB4, Homo sapiens, UniProt P54760)",94.2
"MAP kinase-activated protein kinase 3 (MAPKAPK3, Homo sapiens, UniProt Q16644)",92.3
"Cyclin-dependent kinase 6, with cyclin D3 (CDK6, Homo sapiens, UniProt Q00534)",85
"Serine/threonine-protein kinase WNK3 (WNK3, Homo sapiens, UniProt Q9BYP7)",92

# Set 4
# SMILES: Cc1c[nH]c2nccc(Oc3c(F)cc(Nc4cc(Cl)nc(N)n4)cc3F)c12
# Concentration: 0.1 µM
target,observed,method,remaining binding [%]
"Epithelial discoidin domain-containing receptor 1 (DDR1, Homo sapiens, UniProt Q08345)",cell-free assay,competition with immobilised ligand,100
"Macrophage colony-stimulating factor 1 receptor, autoinhibited (CSF1R, Homo sapiens, UniProt P07333)",cell-free assay,competition with immobilised ligand,100
"Serine/threonine-protein kinase pim-2 (PIM2, Homo sapiens, UniProt Q9P1W9)",cell-free assay,competition with immobilised ligand,100
"Serine/threonine-protein kinase VRK2 (VRK2, Homo sapiens, UniProt Q86Y07)",cell-free assay,competition with immobilised ligand,76
"Insulin receptor-related protein (INSRR, Homo sapiens, UniProt P14616)",cell-free assay,competition with immobilised ligand,91
"Tyrosine-protein kinase Yes (YES1, Homo sapiens, UniProt P07947)",cell-free assay,competition with immobilised ligand,96
"Serine/threonine-protein kinase TAO2 (TAOK2, Homo sapiens, UniProt Q9UL54)",cell-free assay,competition with immobilised ligand,100
"Tyrosine-protein kinase ZAP-70 (ZAP70, Homo sapiens, UniProt P43403)",cell-free assay,competition with immobilised ligand,100
"BMP-2-inducible protein kinase (BMP2K, Homo sapiens, UniProt Q9NSY1)",cell-free assay,competition with immobilised ligand,100
"Serine/threonine-protein kinase Sgk1 (SGK1, Homo sapiens, UniProt O00141)",cell-free assay,competition with immobilised ligand,74
"Mitogen-activated protein kinase 10 (MAPK10, Homo sapiens, UniProt P53779)",cell-free assay,competition with immobilised ligand,81
"Receptor-type tyrosine-protein kinase FLT3 (FLT3, Homo sapiens, UniProt P36888, N841I)",cell-free assay,competition with immobilised ligand,76
"Serine/threonine-protein kinase MRCK gamma (CDC42BPG, Homo sapiens, UniProt Q6DT37)",,competition binding,68
"Cyclin-G-associated kinase (GAK, Homo sapiens, UniProt O14976)",cell-free assay,competition with immobilised ligand,100
"Inhibitor of nuclear factor kappa-B kinase subunit beta (IKBKB, Homo sapiens, UniProt O14920)",cell-free assay,competition with immobilised ligand,69
"1-phosphatidylinositol 3-phosphate 5-kinase (PIKFYVE, Homo sapiens, UniProt Q9Y2I7)",cell-free assay,competition with immobilised ligand,98
"Serine/threonine-protein kinase 24 (STK24, Homo sapiens, UniProt Q9Y6E0)",cell-free assay,competition with immobilised ligand,100
"Phosphatidylinositol 3-kinase C2 domain-containing subunit gamma (PIK3C2G, Homo sapiens, UniProt O75747)",cell-free assay,competition with immobilised ligand,100
"Serine/threonine-protein kinase DCLK2 (DCLK2, Homo sapiens, UniProt Q8N568)",cell-free assay,competition with immobilised ligand,100
"Serine/threonine-protein kinase MRCK beta (CDC42BPB, Homo sapiens, UniProt Q9Y5S2)",cell-free assay,competition with immobilised ligand,70
"Protein-tyrosine kinase 6 (PTK6, Homo sapiens, UniProt Q13882)",cell-free assay,competition with immobilised ligand,100
"Non-receptor tyrosine-protein kinase TYK2, JH1 (TYK2, Homo sapiens, UniProt P29597)",cell-free assay,competition with immobilised ligand,78

# Some of these lines once more (set 4):
target,observed,method,remaining binding [%]
"Epithelial discoidin domain-containing receptor 1 (DDR1, Homo sapiens, UniProt Q08345)",cell-free assay,competition with immobilised ligand,100
"Macrophage colony-stimulating factor 1 receptor, autoinhibited (CSF1R, Homo sapiens, UniProt P07333)",cell-free assay,competition with immobilised ligand,100
"Serine/threonine-protein kinase pim-2 (PIM2, Homo sapiens, UniProt Q9P1W9)",cell-free assay,competition with immobilised ligand,100
"Serine/threonine-protein kinase VRK2 (VRK2, Homo sapiens, UniProt Q86Y07)",cell-free assay,competition with immobilised ligand,76
"Insulin receptor-related protein (INSRR, Homo sapiens, UniProt P14616)",cell-free assay,competition with immobilised ligand,91
